{"data": "Experimental data of several laboratories", "note": "A part holds a random share of what one study measured. Substitutions count along the parent as printed."}
{"data": "Study 1", "target": "Sal-like protein 4, full length isoform B (SALL4, Homo sapiens, UniProt Q9UJQ4-2, residues 1-616)", "method": "universal PBM", "molecule type": "double-stranded DNA, one strand shown", "matrix": "in vitro", "concentration": "not given", "notes": "8-mer, flanks averaged, mean of replicates", "reading": "higher = stronger binding"}
{"Strand": "AAATCTCA", "E-score": 0.113}
{"Strand": "TAGCAGCA", "E-score": -0.0808}
{"Strand": "AATGTGTA", "E-score": 0.283}
{"Strand": "GGGTCCCA", "E-score": -0.227}
{"Strand": "CCAAGTCA", "E-score": -0.0572}
{"Strand": "CAACGAGA", "E-score": 0.13}
{"Strand": "GGACATCC", "E-score": -0.221}
{"Strand": "CGACTCCC", "E-score": -0.0995}
{"Strand": "CCGAATAC", "E-score": 0.00905}
{"Strand": "CGCCATTA", "E-score": -0.0975}
{"Strand": "ATCCGTCG", "E-score": -0.1}
{"Strand": "AGTTCCAT", "E-score": 0.125}
{"Strand": "CACGCGCG", "E-score": -0.182}
{"Strand": "GGTTGGAA", "E-score": -0.239}
{"Strand": "ATTACCCC", "E-score": 0.0585}
{"Strand": "ATGAAGGG", "E-score": -0.0143}
{"data": "Study 2", "target": "RNA binding protein fox-1 homolog 2, RRM domain, GST-SBP tag (RBFOX2, Homo sapiens, UniProt O43251-10, residues 100-194)", "method": "RNA Bind-n-Seq", "molecule type": "RNA", "matrix": "in vitro", "concentration": "365 nM", "notes": "natural RNA segment, single round, ends assumed", "relative to": "no-protein control", "reading": "higher = stronger binding", "shared flanks, not repeated": "GGGAGUUCUACAGUCCGACGAUC … UGGAAUUCUCGGGUGCCAA", "Construct (chain)": "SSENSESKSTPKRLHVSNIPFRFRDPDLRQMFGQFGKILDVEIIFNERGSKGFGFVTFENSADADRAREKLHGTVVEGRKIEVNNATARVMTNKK"}
{"Strand": "UCUGGAAGCCCCAGCACCGGGGGGCUUUUGGGCACAGGGUCAGUGGUAGCCAUCUUAGACACUGACAUUUGGCUUUGUCGUCAAUUUCAUCACCCUCCUUGAGGUUACUG", "RBNS enrichment (R)": 0.476}
{"Strand": "AGAUGACUGAAGUAUUUGUGAGCCACAUAUUGGGAGUUCUAGAUUUGAGUGAAUGGCAGGAAAGGGCCAUCUCCAUUGAGAUGAUUAAGUGAACCAAACUAGUUCUCAGA", "RBNS enrichment (R)": 0.548}
{"Strand": "CAUGCCCCUGCUCACCUCUGCCAGGUCCCAGCUUGACCUACUGGGUCAAGGCCAGCCUCGGUGAUGGCCUGAUCCCAGGUACAAGGCCUUGUGAACUGAGUUUGAAACAU", "RBNS enrichment (R)": 0.545}
{"Strand": "UGCCACAUUGGUUAAGUGCCAUCAUUUGUAAUGCAAUGUGUCACUUGAAAAGAGAUUUGAAGAAACUGACAACUUCAAAAACAAAUGAGAAGCCCAAGGAACUGUGAGCA", "RBNS enrichment (R)": 5.5}
{"Strand": "ACAAAGAGCCUCCUUUCCCCACCUUACUCACACUGAUUCCCACCUAACAAUCAGCAGAUGGGAGUGUGGGUUCCUUAUGUCACAGGCUGUGCCCCAGCGGUCACUCACAA", "RBNS enrichment (R)": 0.359}
{"Strand": "GCUGUGCUUAAAAGGUUGCAUACUGAGCCAAGUAUAAUUUUUGUAAUGUGUGAAAAAGAUGCCAAUUAUUGUUACACAUCAAGCAAUCAAUAAAGAAAACUUCCGUAGUU", "RBNS enrichment (R)": 0.378}
{"Strand": "ACUGAACUUUUUGGCACUGCUUUGGAUUGGGGUCAAUUGCAGUCCACGUAACUGGCUGCAGAGAAAUCUACCGAGCAAGGAAAAGGCACACACACACGUUUGCAGGGGUG", "RBNS enrichment (R)": 1.55}
{"Strand": "CUCUUGACACCAUAGCAGAGCAUCUCCGCAAGGUCCAUCCUCCGGAAUGAGGCUGUUGGGGUGUCCUAACCCAGGUCCUUGUGCUUCACUGACAGUUUGCUCACAGGUUA", "RBNS enrichment (R)": 0.271}
{"data": "Study 3", "target": "Max-binding protein MNT, bHLH-zipper, MAX partner unstated (MNT, Homo sapiens, UniProt Q99583, residues 220-300)", "method": "protein-binding microarray", "molecule type": "double-stranded DNA, one strand shown", "matrix": "in vitro", "concentration": "not given", "notes": "k-mer, scored over probes, only values ≥0.25", "reading": "higher = stronger binding", "Residues (chain)": "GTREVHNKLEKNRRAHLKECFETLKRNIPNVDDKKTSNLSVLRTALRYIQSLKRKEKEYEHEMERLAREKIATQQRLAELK"}
{"Strand": "CGCATGGC", "E-score": 0.443}
{"Strand": "CGCCGCCA", "E-score": 0.258}
{"Strand": "CACGACCA", "E-score": 0.304}
{"Strand": "CGCATGTC", "E-score": 0.398}
{"Strand": "GGGCGGGA", "E-score": 0.358}
{"Strand": "ATGCGCAC", "E-score": 0.337}
{"Strand": "CACATGGC", "E-score": 0.483}
{"Strand": "CAGTCACG", "E-score": 0.424}
{"Strand": "CTGCACGC", "E-score": 0.412}
{"Strand": "GGACGCAC", "E-score": 0.315}
{"Strand": "AGCATGTC", "E-score": 0.357}
{"Strand": "CATGGGAC", "E-score": 0.283}
{"Strand": "ACGAGACA", "E-score": 0.266}
{"Strand": "AACACGCA", "E-score": 0.324}
{"Strand": "GCATGCAC", "E-score": 0.424}
{"Strand": "CGCCATGC", "E-score": 0.417}
{"data": "Study 4", "target": "Histone acetyltransferase KAT6A, both winged helices, GST fusion (KAT6A, Homo sapiens, UniProt Q92794, residues 1-181)", "method": "protein binding microarray", "molecule type": "double-stranded DNA, one strand shown", "matrix": "in vitro", "concentration": "not given", "notes": "8-mer, flanks averaged, mean of 2 arrays, mostly near background", "relative to": "not given", "reading": "higher = stronger binding", "Residues (chain)": "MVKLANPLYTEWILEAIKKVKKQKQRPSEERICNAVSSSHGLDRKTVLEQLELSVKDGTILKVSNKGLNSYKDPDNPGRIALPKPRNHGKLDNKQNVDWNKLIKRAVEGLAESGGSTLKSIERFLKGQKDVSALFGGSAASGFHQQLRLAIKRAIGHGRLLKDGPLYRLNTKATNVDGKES"}
{"Strand": "ACTTAATG", "E-score": -0.0728}
{"Strand": "GCTGAATA", "E-score": -0.0419}
{"Strand": "CCTACGAC", "E-score": -0.168}
{"Strand": "AACTAGCC", "E-score": -0.137}
{"Strand": "GCAAATGA", "E-score": -0.166}
{"Strand": "AGACTTAC", "E-score": -0.0735}
{"Strand": "AGGGTTTA", "E-score": -0.127}
{"Strand": "ACTGCATC", "E-score": -0.179}
{"Strand": "AGGAATCC", "E-score": -0.0401}
{"Strand": "GCCCACCA", "E-score": -0.215}
{"Strand": "AACTTGCG", "E-score": 0.157}
{"Strand": "ATAATCAC", "E-score": 0.034}
{"Strand": "CCGGTAAG", "E-score": 0.167}
{"Strand": "ATCAGATC", "E-score": -0.23}
{"Strand": "ACCCGGGG", "E-score": 0.177}
{"Strand": "GACTTATA", "E-score": -0.0782}
{"Strand": "ACTTCGGG", "E-score": -0.00399}
{"Strand": "CGCACTCC", "E-score": 0.108}
{"Strand": "ATTCTGGC", "E-score": -0.0296}
{"Strand": "CATCCATG", "E-score": -0.118}
{"Strand": "CCTCACCC", "E-score": -0.104}
{"Strand": "CTCGGCTA", "E-score": 0.192}
{"Strand": "AGTATTAT", "E-score": -0.302}
{"Strand": "GGATGGCA", "E-score": -0.00779}
{"Strand": "TGTCATAA", "E-score": -0.0696}
{"data": "Study 5", "target": "PABPC1L2, full length, GST fusion (mouse, UniProt A0ABA7IW68)", "method": "RNAcompete", "molecule type": "RNA", "matrix": "in vitro", "concentration": "20 nM", "notes": "7-mer, probes averaged, single round", "relative to": "mean of 7-mers", "reading": "higher = stronger binding", "Residues (chain)": "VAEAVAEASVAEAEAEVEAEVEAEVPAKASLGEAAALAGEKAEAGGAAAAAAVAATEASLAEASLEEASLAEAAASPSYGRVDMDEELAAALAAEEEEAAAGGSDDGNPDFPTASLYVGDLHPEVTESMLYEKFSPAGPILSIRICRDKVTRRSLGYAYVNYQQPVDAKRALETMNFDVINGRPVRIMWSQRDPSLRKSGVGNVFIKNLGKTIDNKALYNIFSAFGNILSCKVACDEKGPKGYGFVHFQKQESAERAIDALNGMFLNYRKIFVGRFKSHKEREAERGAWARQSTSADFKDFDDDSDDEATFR"}
{"Strand": "GACCUAC", "7-mer Z-score": -0.166}
{"Strand": "UGUAACA", "7-mer Z-score": -0.122}
{"Strand": "UAAGCCG", "7-mer Z-score": -0.211}
{"Strand": "GAAGACA", "7-mer Z-score": 0.254}
{"Strand": "ACUAGAC", "7-mer Z-score": -0.103}
{"Strand": "CUACGGG", "7-mer Z-score": 0.287}
{"Strand": "AGUAAUU", "7-mer Z-score": -0.166}
{"Strand": "GAAAAGC", "7-mer Z-score": 1.97}
{"Strand": "AGGGGUG", "7-mer Z-score": 0.419}
{"Strand": "GCUGAUC", "7-mer Z-score": -0.161}
{"Strand": "GAAGCUC", "7-mer Z-score": -0.248}
{"Strand": "AUUCGGG", "7-mer Z-score": 0.0243}
{"Strand": "CUAAGUC", "7-mer Z-score": -0.358}
{"Strand": "CCAUGAA", "7-mer Z-score": 0.0297}
{"Strand": "UAGUAAU", "7-mer Z-score": -0.124}
{"Strand": "GGCUUUA", "7-mer Z-score": 0.253}
{"Strand": "CACUCUU", "7-mer Z-score": -0.382}
{"Strand": "UAACCCC", "7-mer Z-score": -0.322}
{"Strand": "GGCCGUU", "7-mer Z-score": -0.369}
{"Strand": "GCGUUGC", "7-mer Z-score": -0.0518}
{"Strand": "CUAAUAA", "7-mer Z-score": 0.218}
{"Strand": "CCUAUGA", "7-mer Z-score": -0.186}
{"Strand": "CUUAAGC", "7-mer Z-score": -0.229}
{"Strand": "CAAGUUU", "7-mer Z-score": -0.269}
{"data": "Study 6", "target": "CCND2, cyclin fold, Cln2 fusion (human)", "method": "yeast growth competition, sequencing", "matrix": "yeast", "notes": "weak parent motif", "relative to": "not given", "reading": "higher = stronger binding", "starting sequence": "CDC25A docking peptide (human); PPHRRRLLFACSP; partner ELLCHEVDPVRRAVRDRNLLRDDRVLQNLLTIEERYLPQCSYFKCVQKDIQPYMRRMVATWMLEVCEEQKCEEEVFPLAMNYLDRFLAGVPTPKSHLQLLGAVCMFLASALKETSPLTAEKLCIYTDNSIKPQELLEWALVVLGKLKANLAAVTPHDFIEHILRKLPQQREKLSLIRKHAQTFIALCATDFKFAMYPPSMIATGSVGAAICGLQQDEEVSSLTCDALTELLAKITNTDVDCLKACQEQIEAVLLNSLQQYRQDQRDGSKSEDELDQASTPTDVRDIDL"}
{"Substitution": "F9P", "normalised enrichment score": 0.00608}
{"Substitution": "P13I", "normalised enrichment score": 0.208}
{"Substitution": "S12G", "normalised enrichment score": 0.345}
{"Substitution": "P1R", "normalised enrichment score": 0.0402}
{"Substitution": "R6D", "normalised enrichment score": 0.0764}
{"Substitution": "R4E", "normalised enrichment score": 0.25}
{"Substitution": "R5I", "normalised enrichment score": 0.166}
{"Substitution": "L8H", "normalised enrichment score": -0.147}
{"Substitution": "L8R", "normalised enrichment score": 0.252}
{"Substitution": "C11Y", "normalised enrichment score": -0.00474}
{"Substitution": "L7G", "normalised enrichment score": 0.0693}
{"Substitution": "P2R", "normalised enrichment score": 0.122}
{"Substitution": "F9L", "normalised enrichment score": 0.0997}
{"Substitution": "S12P", "normalised enrichment score": 0.322}
{"Substitution": "C11A", "normalised enrichment score": 0.343}
{"Substitution": "L7C", "normalised enrichment score": 0.194}
{"Substitution": "P1G", "normalised enrichment score": -0.0572}
{"Substitution": "H3T", "normalised enrichment score": 0.314}
